Experimental data gathered from unrelated publications.
Compare with care: the assays were run in different laboratories. ± gives the spread as reported.
KDM4A: Lysine-specific demethylase 4A (KDM4A, Homo sapiens, UniProt O75164)
Chain of UniProt O75164 (whole entry, looked up): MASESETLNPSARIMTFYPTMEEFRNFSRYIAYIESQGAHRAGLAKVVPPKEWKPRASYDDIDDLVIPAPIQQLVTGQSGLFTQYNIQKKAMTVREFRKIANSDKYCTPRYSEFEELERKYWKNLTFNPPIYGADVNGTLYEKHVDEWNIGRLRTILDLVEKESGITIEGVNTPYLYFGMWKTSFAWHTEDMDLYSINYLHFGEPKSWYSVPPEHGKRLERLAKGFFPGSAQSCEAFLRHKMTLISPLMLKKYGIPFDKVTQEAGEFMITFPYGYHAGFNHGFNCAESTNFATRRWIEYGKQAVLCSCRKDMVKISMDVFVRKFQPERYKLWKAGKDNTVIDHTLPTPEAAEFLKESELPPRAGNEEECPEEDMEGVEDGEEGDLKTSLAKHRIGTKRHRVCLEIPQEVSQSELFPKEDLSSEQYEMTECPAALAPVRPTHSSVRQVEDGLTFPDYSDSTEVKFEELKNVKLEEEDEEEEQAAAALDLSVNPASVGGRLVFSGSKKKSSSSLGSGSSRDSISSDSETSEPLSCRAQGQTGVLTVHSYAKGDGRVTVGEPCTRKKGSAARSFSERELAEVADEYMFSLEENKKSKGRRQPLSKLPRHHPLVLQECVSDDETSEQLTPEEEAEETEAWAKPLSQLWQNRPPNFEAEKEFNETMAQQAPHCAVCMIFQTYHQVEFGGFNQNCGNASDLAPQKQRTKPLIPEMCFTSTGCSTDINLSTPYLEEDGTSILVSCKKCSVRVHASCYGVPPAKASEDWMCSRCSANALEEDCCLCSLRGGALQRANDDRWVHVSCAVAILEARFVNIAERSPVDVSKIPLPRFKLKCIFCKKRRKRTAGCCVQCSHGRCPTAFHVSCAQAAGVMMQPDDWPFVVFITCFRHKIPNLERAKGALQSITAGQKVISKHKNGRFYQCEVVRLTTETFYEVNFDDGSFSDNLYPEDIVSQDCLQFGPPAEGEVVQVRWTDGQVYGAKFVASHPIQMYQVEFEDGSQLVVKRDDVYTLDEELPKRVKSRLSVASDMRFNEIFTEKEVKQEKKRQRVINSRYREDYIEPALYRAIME
UCHL1: Ubiquitin carboxyl-terminal hydrolase isozyme L1 (UCHL1, Homo sapiens, UniProt P09936)
Chain of UniProt P09936 (whole entry, looked up): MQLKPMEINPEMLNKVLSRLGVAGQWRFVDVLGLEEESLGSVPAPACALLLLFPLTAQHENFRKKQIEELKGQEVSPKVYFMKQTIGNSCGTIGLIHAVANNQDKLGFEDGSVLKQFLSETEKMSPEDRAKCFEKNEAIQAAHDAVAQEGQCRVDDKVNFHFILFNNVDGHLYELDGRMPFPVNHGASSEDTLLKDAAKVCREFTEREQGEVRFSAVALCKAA
PDGFRA: Platelet-derived growth factor receptor alpha (PDGFRA, Homo sapiens, UniProt P16234)
Chain of UniProt P16234 (whole entry, looked up): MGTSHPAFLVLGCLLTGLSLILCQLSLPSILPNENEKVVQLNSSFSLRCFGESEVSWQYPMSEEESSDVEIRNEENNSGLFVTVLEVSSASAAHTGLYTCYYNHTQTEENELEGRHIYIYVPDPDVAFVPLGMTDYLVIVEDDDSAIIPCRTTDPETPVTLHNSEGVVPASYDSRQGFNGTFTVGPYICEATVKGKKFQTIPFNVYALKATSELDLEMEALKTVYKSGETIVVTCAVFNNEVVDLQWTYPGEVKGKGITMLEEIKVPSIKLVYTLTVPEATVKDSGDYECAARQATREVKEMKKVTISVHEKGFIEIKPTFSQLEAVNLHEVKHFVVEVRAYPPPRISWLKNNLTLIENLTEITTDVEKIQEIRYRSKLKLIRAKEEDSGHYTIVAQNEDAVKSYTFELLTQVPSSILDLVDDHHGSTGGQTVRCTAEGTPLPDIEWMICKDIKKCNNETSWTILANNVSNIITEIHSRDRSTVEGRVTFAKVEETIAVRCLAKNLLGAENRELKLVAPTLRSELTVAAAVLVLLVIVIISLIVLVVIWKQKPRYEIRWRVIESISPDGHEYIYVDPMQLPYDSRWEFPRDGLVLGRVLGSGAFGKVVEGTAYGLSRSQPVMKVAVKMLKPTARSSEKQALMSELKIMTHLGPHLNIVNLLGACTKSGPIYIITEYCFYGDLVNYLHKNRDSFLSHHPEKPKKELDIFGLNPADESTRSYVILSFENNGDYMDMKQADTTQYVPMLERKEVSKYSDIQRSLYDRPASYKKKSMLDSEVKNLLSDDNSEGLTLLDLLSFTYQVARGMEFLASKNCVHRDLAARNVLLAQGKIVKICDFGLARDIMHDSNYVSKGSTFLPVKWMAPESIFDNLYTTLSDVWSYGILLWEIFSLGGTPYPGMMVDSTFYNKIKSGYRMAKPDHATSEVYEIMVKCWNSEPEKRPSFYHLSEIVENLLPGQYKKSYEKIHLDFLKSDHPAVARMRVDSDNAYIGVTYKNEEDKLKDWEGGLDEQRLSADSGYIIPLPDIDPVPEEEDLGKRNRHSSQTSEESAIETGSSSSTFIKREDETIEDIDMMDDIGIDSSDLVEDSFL
Chain of UniProt O00506 (whole entry, looked up): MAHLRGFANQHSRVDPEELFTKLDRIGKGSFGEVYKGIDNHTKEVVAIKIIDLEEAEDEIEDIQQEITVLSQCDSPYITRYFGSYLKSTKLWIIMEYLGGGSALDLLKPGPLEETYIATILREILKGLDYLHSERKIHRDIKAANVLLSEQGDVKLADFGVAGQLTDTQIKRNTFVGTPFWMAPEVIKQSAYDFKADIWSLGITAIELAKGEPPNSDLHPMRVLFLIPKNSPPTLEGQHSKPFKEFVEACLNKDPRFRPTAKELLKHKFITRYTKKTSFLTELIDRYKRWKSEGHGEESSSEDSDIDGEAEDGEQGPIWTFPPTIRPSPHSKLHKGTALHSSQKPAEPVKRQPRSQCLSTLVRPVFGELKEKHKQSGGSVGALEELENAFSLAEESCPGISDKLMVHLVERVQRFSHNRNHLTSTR
Chain of UniProt P45983 (whole entry, looked up): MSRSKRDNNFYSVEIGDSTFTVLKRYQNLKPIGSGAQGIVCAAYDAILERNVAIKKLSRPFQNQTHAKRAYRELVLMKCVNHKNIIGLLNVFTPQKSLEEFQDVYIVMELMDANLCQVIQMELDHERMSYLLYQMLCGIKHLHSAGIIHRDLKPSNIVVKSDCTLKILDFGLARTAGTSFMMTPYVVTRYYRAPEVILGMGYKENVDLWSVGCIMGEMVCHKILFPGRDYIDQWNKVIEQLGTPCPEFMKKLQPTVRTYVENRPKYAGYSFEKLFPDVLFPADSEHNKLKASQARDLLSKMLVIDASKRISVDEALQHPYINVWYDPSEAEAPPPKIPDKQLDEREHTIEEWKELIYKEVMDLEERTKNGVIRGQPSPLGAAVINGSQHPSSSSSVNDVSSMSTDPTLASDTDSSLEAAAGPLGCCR
Chain of UniProt P42680 (whole entry, looked up): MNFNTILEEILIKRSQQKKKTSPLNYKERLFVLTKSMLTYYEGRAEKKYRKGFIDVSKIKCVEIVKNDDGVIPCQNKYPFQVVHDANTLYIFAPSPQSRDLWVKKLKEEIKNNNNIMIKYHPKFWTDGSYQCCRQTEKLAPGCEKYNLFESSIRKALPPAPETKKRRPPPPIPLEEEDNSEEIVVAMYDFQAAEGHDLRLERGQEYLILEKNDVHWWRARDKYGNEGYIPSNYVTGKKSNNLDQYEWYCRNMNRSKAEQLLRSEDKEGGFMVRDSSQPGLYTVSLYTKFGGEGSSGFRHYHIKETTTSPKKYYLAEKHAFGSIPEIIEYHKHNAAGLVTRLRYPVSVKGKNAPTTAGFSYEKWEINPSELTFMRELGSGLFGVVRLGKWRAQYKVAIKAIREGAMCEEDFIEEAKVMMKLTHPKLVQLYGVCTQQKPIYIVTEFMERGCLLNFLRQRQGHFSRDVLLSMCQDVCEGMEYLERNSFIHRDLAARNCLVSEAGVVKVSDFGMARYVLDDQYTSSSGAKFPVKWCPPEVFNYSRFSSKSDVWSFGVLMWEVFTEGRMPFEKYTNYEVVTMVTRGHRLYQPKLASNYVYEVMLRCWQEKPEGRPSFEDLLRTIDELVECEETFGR
Chain of UniProt P05164 (whole entry, looked up): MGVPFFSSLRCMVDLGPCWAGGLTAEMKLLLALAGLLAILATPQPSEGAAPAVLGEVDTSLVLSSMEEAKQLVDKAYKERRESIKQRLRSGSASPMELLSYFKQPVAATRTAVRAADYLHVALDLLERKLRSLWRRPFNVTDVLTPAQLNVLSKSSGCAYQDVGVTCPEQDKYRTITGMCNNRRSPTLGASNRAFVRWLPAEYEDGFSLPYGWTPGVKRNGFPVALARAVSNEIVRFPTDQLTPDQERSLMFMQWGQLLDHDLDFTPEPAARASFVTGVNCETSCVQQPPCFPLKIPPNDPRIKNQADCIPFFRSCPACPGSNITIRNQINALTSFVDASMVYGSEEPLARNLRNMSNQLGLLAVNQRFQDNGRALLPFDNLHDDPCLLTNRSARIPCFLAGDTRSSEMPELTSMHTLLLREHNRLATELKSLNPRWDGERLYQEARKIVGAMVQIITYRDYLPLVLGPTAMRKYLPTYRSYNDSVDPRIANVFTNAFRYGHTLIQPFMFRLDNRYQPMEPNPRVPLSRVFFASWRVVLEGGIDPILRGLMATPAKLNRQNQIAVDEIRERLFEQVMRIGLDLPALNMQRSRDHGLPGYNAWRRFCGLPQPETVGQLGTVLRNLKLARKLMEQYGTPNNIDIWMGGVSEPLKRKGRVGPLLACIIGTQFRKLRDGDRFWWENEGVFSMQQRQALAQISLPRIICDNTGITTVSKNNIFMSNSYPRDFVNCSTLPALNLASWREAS

Structure (SMILES)	tested on	test	system	conditions	scale	endpoint	value
COc1cccc(CNC(=O)CCC2CCCN(C/C=C/c3ccccc3OC)C2)c1 (centres unmarked)	Trypanosoma cruzi	reporter translation, Renilla luciferase mRNA translation	cell-free extract	40 µM	baseline: DMSO	inhibition	7.9%
COc1cc(N2CCN(C)CC2)ccc1Nc1nc(N)n(C(=O)NCc2ccccc2S(=O)(=O)C(C)C)n1	MET (Homo sapiens, UniProt P08581, Y1235D)	enzyme activity	–	10 µM	baseline: control	remaining activity	18%
C[C@@H](Oc1ccc(S(C)(=O)=O)cc1C(=O)N1C[C@@H]2C[C@]2(c2cc(C(F)(F)F)on2)C1)C(F)(F)F	SLC6A9 (Homo sapiens, UniProt P48067, G373S)	glycine uptake, inhibitor, [3H]glycine uptake	–	0.0001 µM, G319S mutant, log concentration -1, added: [3H]glycine	baseline: no inhibitor	remaining activity	98.6%
Cn1ncc(S(=O)(=O)NC2CCc3c2ccc(Cl)c3Cl)c1C(=O)O (centres unmarked)	malate dehydrogenase	enzyme activity, inhibitor	–	200 µM, pH 7.0, 1% DMSO, aggregation counter-screen	–	remaining activity	100%
C/C(CC(O)(C(F)(F)F)C(F)(F)F)=N/Nc1ccc([N+](=O)[O-])cc1[N+](=O)[O-]	KDM4A	–	–	concentration not given	–	remaining activity	92%
Cc1cc(NC(=O)c2cccc(NC(=O)/C=C/CN(C)C)c2)ccc1Nc1nccc(-c2cccnc2)n1	MAPK8 (Homo sapiens, UniProt P45983)	enzyme activity, inhibitor	–	44.44 µM, 6 h, unit not given, added: GSH 10 mM pre-incubation	baseline: vehicle	remaining activity	0.0367
CNc1ncc2c(/C=C/C(=O)N3CCC(OC)CC3)nn(Cc3cccc(C(F)(F)F)c3)c2n1	EPHA1 (Homo sapiens, UniProt P21709)	kinase activity, inhibitor	–	1 µM	baseline: untreated control	remaining activity	101%
CN(CCC#N)CC(=O)Nc1cccnc1Cl	UCHL1	covalent, intact protein LC-MS	–	12.5 µM	–	labelling	13.9%
COc1ccc(F)cc1C(=O)NCc1ccc(-c2nn([C@@H](C)C(F)(F)F)c(N)c2C(N)=O)cc1	Tyrosine-protein kinase Lyn, isoform B (LYN, Homo sapiens, UniProt P07948)	kinase activity, inhibitor, HotSpot radiometric	–	100 nM, added: ATP 10 µM	–	remaining activity	101%
Cc1ccc(NS(=O)(=O)c2cccc(Cl)c2O)c(-c2ncn[nH]2)c1	malate dehydrogenase	enzyme activity, inhibitor	–	200 µM, pH 7.0, 1% DMSO, aggregation counter-screen	–	remaining activity	76%
CCc1ccc(CN2CCCC(CNC(=O)c3cccc(OC)c3OC)C2)cc1 (centres unmarked)	Trypanosoma cruzi	reporter translation, Renilla luciferase mRNA translation	cell-free extract	40 µM	baseline: DMSO	inhibition	-7.3%
C=CC[C@@H]1c2ccc(OC)c(OC)c2CN2CCc3cc4c(cc3[C@H]12)OCO4	P2X purinoceptor 7 (P2rx7, Mus musculus, UniProt Q9Z1M0, A312V)	ATP-evoked current, inhibitor, whole-cell patch clamp	–	10 µM, A312V variant	–	remaining activity	21.5%
O=C(O)c1ccc(Nc2ncc3c(n2)-c2ccc(Cl)cc2C(c2c(F)cccc2F)=NC3)cc1	EphB3(h)	kinase activity	–	1 µM	–	remaining activity	95%
CC(CNS(=O)(=O)c1cnn(C)c1C(=O)O)c1c(Cl)cccc1Cl (centres unmarked)	malate dehydrogenase	enzyme activity, inhibitor	–	200 µM, pH 7.0, 1% DMSO, aggregation counter-screen	–	remaining activity	72%
CC#CC(=O)N1CCC[C@H]1c1nc(-c2ccc(C(=O)Nc3ccccn3)cc2)c2c(N)nccn12	TNK2 (Homo sapiens, UniProt Q07912)	kinase activity, inhibitor, HotSpot radiometric	–	100 nM, added: ATP 10 µM	–	remaining activity	98.2 ± 0.1%
O=C(NC1CCC1)c1ccc2nc(-c3cccc(NS(=O)(=O)NCCN4CCCCC4)c3)cn2c1	CDPK1 (Plasmodium falciparum, UniProt P62344)	enzyme activity	–	10 µM	–	remaining activity	94%
Cc1cccc(C)c1C(=O)OCC(=O)[C@H](CCCCN)NC(=O)[C@H](CCCNC(=N)N)NC(=O)OCc1ccccc1	Ctsc (Mus musculus, UniProt P97821)	inhibitor	–	0.1 µM, room temperature, added: AMC substrate	–	remaining activity	95%
COc1cccc(Cl)c1[C@@H]1C[C@H]1NS(=O)(=O)c1ccsc1C(=O)O	malate dehydrogenase	enzyme activity, inhibitor	–	200 µM, pH 7.0, 1% DMSO, aggregation counter-screen	–	remaining activity	135%

Structure (SMILES)	tested on	test	system	conditions	scale	endpoint	value
Cc1cc(Nc2cc(N3CCN(C)CC3)nc(Sc3ccc(NC(=O)C4CC4)cc3)n2)[nH]n1	PDGFRA	kinase activity, KinaseProfiler	–	0.03 µM, species human	baseline: control	remaining activity	107%
COc1cc(-c2cncc3c2CN(C)Cc2cc(N4CCNCC4)ccc2-3)cc(OC)c1OC	PAK1 (Homo sapiens, UniProt Q13153)	kinase activity	–	1 µM, human enzyme, added: ATP 10 µM	baseline: DMSO control	remaining activity	97%
COc1cc(F)ccc1-c1ncnc(Nc2cccc(C[S@](C)(=N)=O)c2)n1	PTK2B (Homo sapiens, UniProt Q14289)	kinase activity	–	10 µM, added: 10 µM ATP	–	remaining activity	82%
O=S(=O)(Nc1ccc(O)c(C(F)(F)F)c1)c1cc(Cl)cc(Cl)c1O	malate dehydrogenase	enzyme activity, inhibitor	–	200 µM, pH 7.0, 1% DMSO, aggregation counter-screen	–	remaining activity	74%
CCCOc1ccc(OC)c(F)c1C(=O)c1ccc(C(=O)N[C@@H]2CNC[C@H]2NC(=O)c2ccc3[nH]ncc3c2)cc1	MET (Homo sapiens, UniProt P08581, Y1230D)	enzyme activity	–	10 µM	–	remaining activity	39%
C=CC(=O)N1CCC[C@@H](n2nc(-c3ccc(Oc4ccccc4)cc3)c3c(N)ncnc32)C1	STK25 (Homo sapiens, UniProt O00506)	kinase activity, inhibitor, HotSpot radiometric	–	100 nM, added: ATP 10 µM	–	remaining activity	103 ± 2.2%
O=C1NC(=O)/C(=C/c2ccc(-c3ccc(F)cc3O)o2)S1	SRPK1 (Homo sapiens, UniProt Q96SB4)	enzyme activity	–	10 µM	–	remaining activity	39%
Cn1ncc(S(=O)(=O)NC2CCOc3c(Cl)cccc32)c1C(=O)O (centres unmarked)	malate dehydrogenase	enzyme activity, inhibitor	–	200 µM, pH 7.0, 1% DMSO, aggregation counter-screen	–	remaining activity	89%
COC(=O)C(C(=O)C(=O)Nc1ccc([N+](=O)[O-])cc1[N+](=O)[O-])c1nc2ccc(Cl)cc2[nH]c1=O (centres unmarked)	KDM4A	–	–	concentration not given	–	remaining activity	77%
O=C(O)c1occc1S(=O)(=O)NCC1CC(c2ccccc2)C1 (centres unmarked)	malate dehydrogenase	enzyme activity, inhibitor	–	200 µM, pH 7.0, 1% DMSO, aggregation counter-screen	–	remaining activity	95%
Cc1ccc(C(=O)c2c(C=O)oc3cc(C#N)c(C#N)cc23)cc1	UCHL1	covalent, intact protein LC-MS	–	12.5 µM	–	labelling	32.9%
C=CC(=O)N1CCC[C@@H](n2nc(-c3ccc(Oc4ccccc4)cc3)c3c(N)ncnc32)C1	PDGFRA	–	–	0.1 µM	–	remaining activity	515%
C=CC(=O)N1CCC([C@@H]2CCNc3c(C(N)=O)c(-c4ccc(Oc5ccccc5)cc4)nn32)CC1	TEC (Homo sapiens, UniProt P42680)	kinase activity, inhibitor, HotSpot radiometric	–	100 nM, added: ATP 10 µM	–	remaining activity	8.9 ± 0.1%
NC/C(=C\F)COc1cccc(Cn2c(=S)[nH]c(=O)c3[nH]cnc32)c1	Myeloperoxidase (MPO, Homo sapiens, UniProt P05164)	LDL lipid peroxidation, inhibitor, refers to: cholesteryl ester hydroperoxide	–	0.00023 µM	baseline: control	remaining activity	89%
COc1cc(Nc2ncc3c(n2)-c2ccc(Cl)cc2C(c2c(F)cccc2OC)=NC3)ccc1C(=O)O	FLT1	kinase activity	–	1 µM	–	remaining activity	95%
COc1cc(NS(=O)(=O)c2cc(Cl)cc(Cl)c2O)c(F)cc1C#N	malate dehydrogenase	enzyme activity, inhibitor	–	40 µM, pH 7.0, 1% DMSO, aggregation counter-screen	–	remaining activity	73%
C[C@H]1[C@H](OC(=O)CCC(=O)O)O[C@@H]2O[C@@]3(C)CC[C@H]4[C@H](C)CC[C@@H]1[C@@]24OO3	Non-structural polyprotein pORF1, helicase domain (Hepatitis E virus genotype 1, UniProt P33424)	ATPase activity, inhibitor, colorimetric	–	39 µM	baseline: untreated	remaining activity	78.6%

Excerpt of the above:
Structure (SMILES)	tested on	test	system	conditions	scale	endpoint	value
O=C1NC(=O)/C(=C/c2ccc(-c3ccc(F)cc3O)o2)S1	SRPK1 (Homo sapiens, UniProt Q96SB4)	enzyme activity	–	10 µM	–	remaining activity	39%
Cn1ncc(S(=O)(=O)NC2CCOc3c(Cl)cccc32)c1C(=O)O (centres unmarked)	malate dehydrogenase	enzyme activity, inhibitor	–	200 µM, pH 7.0, 1% DMSO, aggregation counter-screen	–	remaining activity	89%
COC(=O)C(C(=O)C(=O)Nc1ccc([N+](=O)[O-])cc1[N+](=O)[O-])c1nc2ccc(Cl)cc2[nH]c1=O (centres unmarked)	KDM4A	–	–	concentration not given	–	remaining activity	77%
O=C(O)c1occc1S(=O)(=O)NCC1CC(c2ccccc2)C1 (centres unmarked)	malate dehydrogenase	enzyme activity, inhibitor	–	200 µM, pH 7.0, 1% DMSO, aggregation counter-screen	–	remaining activity	95%
Cc1ccc(C(=O)c2c(C=O)oc3cc(C#N)c(C#N)cc23)cc1	UCHL1	covalent, intact protein LC-MS	–	12.5 µM	–	labelling	32.9%
